# Experimental data of several laboratories.
# Compare with care: the assays were run in different laboratories. “And” joins repeats or separate records; there may be more than shown. ± marks the error that the study gave.
Structure (SMILES),tested on,assay,test system,conditions,scale,quantity,value
C[C@@H]1CN(C(=O)c2ccc(NC(=O)c3cc(O[C@H](C)c4c(Cl)ccc(F)c4Cl)c(N)nn3)cc2)C[C@H](C)N1,Ba/F3 EML4-ALK v1,cell viability,,,,Emax,99.3%
CC(C)NCC(O)c1ccc(O)c(O)c1 (stereo not drawn),mouse ventricular cardiomyocytes,,,"dose not given, 0.147 s",,sarcomere length,1.59 µm
CC1CC(OC(=O)C(O)c2ccccc2)CC(C)(C)C1 (stereo not drawn),MCF-10A,CellTiter-Glo,,concentration not given,"baseline: normalised, mean of replicates",viability,88.5%
CCCCCCNc1nc(NC2CCN(C)CC2)c2cc(OC)c(OC)cc2n1,Toxoplasma gondii,"parasite growth, luciferase reporter","HFF, tachyzoite",72 h,,EC50,2460 nM
Cc1ccc(Cn2cc(COc3cccc(Cc4cnc(NC(=O)CSc5nc(C)cc(C)n5)s4)c3)nn2)cc1,PC-3M-luc,"colony formation, colony forming",,25 µM,,inhibition,32.9 ± 5.4%
Cc1cc(Nc2ncc(Cl)c(Nc3ccccc3S(=O)(=O)C(C)C)n2)c(OC(C)C)cc1C1CCNCC1,CLB-BAR,"phosphoproteomics LC-MS/MS, item: SUN2 phosphorylation",,"200 nM, 60 min",baseline: untreated,log2 fold change,-2.51
CC(=O)OCOC(=O)CN(CC(=O)OCOC(C)=O)c1ccccc1OCCOc1ccccc1N(CC(=O)OCOC(C)=O)CC(=O)OCOC(C)=O,C3H10T1/2-derived adipocytes overexpressing Dlat-Flag,,,"20 µM, 24 h",baseline: Dlat overexpression without compound,"phospho-AMPKα levels, and phospho-ACC1",inhibited
NC1(c2ccc(-c3nc4ccn5c(=O)[nH]nc5c4cc3-c3ccccc3)cc2)CCC1,MDA-MB-468,"flow cytometry, PI staining",,"EC60 concentration, 72 h, DMSO 22.2",,cells in S phase,23.7%
CSc1nc(-c2ccc(Cl)cc2)c2c(NC(=O)c3ccccc3)nnc-2[nH]1,MDA-MB-231/ATCC,NCI60 SRB,,10 µM,,growth percent,80.1%
CCCCCC(=O)Oc1c(C)c(O)c(C(=O)/C=C/c2ccccc2)c(OC)c1C,FaDu,SRB,,,baseline: normal over FaDu IC50,selectivity index,1.24
C#C[C@@]1(O)[C@@H](CO)O[C@@H](n2cc(I)c3c(N)ncnc32)[C@@H]1O,NCI60 panel,cell growth,,mean over panel,,TGI,-5.04 log M and -5.03 log M
CC/C(=N\NC(=O)C(C)Nc1ccccc1)c1ccc(O)c(C)c1O (stereo not drawn),SK-OV-3,"Western blot, item: YAP",,"10 µM, 3 h, 3D gellan gum culture, unit not given",baseline: β-actin,protein level,1.24 ± 0.36
O=C(/C=C/C=C/C=C/C1CCCCC1)NC1=C[C@@](O)(/C=C/C=C/C=C/C(=O)NC2=C(O)CCC2=O)[C@@H]2O[C@@H]2C1=O,JIMT-1,"cell growth, CellTiter-Glo",,78 h,,GI50,14600 nM
C[n+]1cc2c3c(ccc2c2ccc4cc5c(cc4c21)OCO5)OCO3,Toxoplasma gondii,"parasite growth, luciferase reporter","HFF, tachyzoite",72 h,,EC50,343 nM
Cn1cc(-c2ccc(-c3cncc(Cl)c3N3CCC4(CCNC4=O)CC3)cc2)cn1,COLO 205,"gene expression, microarray, item: FHL2 mRNA",,"concentration not given, 2 h",baseline: untreated cells,log2 fold change,2.28
C=CCn1c(=O)c2cnc(Nc3ccc(N4CCN(C)CC4)cc3)nc2n1-c1ccc2c(n1)[C@@](O)(CC)CC2,MDA-MB-231,flow cytometry,,concentration not given,,S phase cells,17.9%
O=C(O)Cc1ccccc1Nc1c(Cl)cccc1Cl,HepG2,item: BiP protein,,"24 h, distribution mode 1",,point of departure,126 µM
c1ccc2[nH]ccc2c1,HCT-8,"RNA-seq, item: CYP1A1",,concentration not given,,"mRNA level, LS mean",12.4 counts per million
CCn1cc(-c2cc(Cn3ccnc3)cc3c2CCN([C@H](c2cc(OC)ccn2)C2CC2)C3=O)c(C(F)(F)F)n1,COLO-668,"cell growth, inhibitor",,120 h,,EC50,530 nM
C=C(CC)C(=O)c1ccc(OCC(=O)O)c(Cl)c1Cl,human neutrophils,"sulfate/chloride exchange, competitive inhibitor",,,,Ki,~7000 nM
CCCCc1oc2ccc(NS(C)(=O)=O)cc2c1C(=O)c1ccc(OCCCN(CCCC)CCCC)cc1,human embryonic stem cell aggregates,"mRNA level, microarray, item: TBX3",,"0.5 µM, 120 h","baseline: untreated, down-regulated",fold change,2.8 fold
CCn1cc(-c2cc(Cn3ccoc3=N)cc3c2CCN([C@@H](C)c2cc(OC)ccn2)C3=O)c(C(F)(F)F)n1,HuCCT-1,"cell growth, inhibitor",,120 h,,EC50,3000 nM
Oc1ccccc1-c1n[nH]cc1-c1ccnc2ccccc12,RCK2 (Candida albicans),"kinase binding, MIB/MS competition",Candida albicans lysate,1 µM,baseline: DMSO,log2 fold change,0.05
O=C(C[C@@H](C(F)F)n1ccc(F)n1)N1CCC(O)(Cn2cnc3c(cnn3-c3ccc(F)cc3)c2=O)CC1,CHP-212 parental (wild-type USP7),PI flow cytometry,,"0.1 µM, 24 h",,cells in G2/M phase,10.6% and 16.3% and 13.9%

# Excerpt of the above:
Structure (SMILES),tested on,assay,test system,conditions,scale,quantity,value
CCn1cc(-c2cc(Cn3ccnc3)cc3c2CCN([C@H](c2cc(OC)ccn2)C2CC2)C3=O)c(C(F)(F)F)n1,COLO-668,"cell growth, inhibitor",,120 h,,EC50,530 nM
Cc1cc(Nc2ncc(Cl)c(Nc3ccccc3S(=O)(=O)C(C)C)n2)c(OC(C)C)cc1C1CCNCC1,CLB-BAR,"phosphoproteomics LC-MS/MS, item: SUN2 phosphorylation",,"200 nM, 60 min",baseline: untreated,log2 fold change,-2.51
CCCCCC(=O)Oc1c(C)c(O)c(C(=O)/C=C/c2ccccc2)c(OC)c1C,FaDu,SRB,,,baseline: normal over FaDu IC50,selectivity index,1.24
c1ccc2[nH]ccc2c1,HCT-8,"RNA-seq, item: CYP1A1",,concentration not given,,"mRNA level, LS mean",12.4 counts per million
